Published values from different studies.
Each numbered part is a random draw from the data of one study; scales do not carry over between parts. “And” joins repeats or separate records; there may be more than shown.
UniProt O96013, sequence (whole entry, looked up): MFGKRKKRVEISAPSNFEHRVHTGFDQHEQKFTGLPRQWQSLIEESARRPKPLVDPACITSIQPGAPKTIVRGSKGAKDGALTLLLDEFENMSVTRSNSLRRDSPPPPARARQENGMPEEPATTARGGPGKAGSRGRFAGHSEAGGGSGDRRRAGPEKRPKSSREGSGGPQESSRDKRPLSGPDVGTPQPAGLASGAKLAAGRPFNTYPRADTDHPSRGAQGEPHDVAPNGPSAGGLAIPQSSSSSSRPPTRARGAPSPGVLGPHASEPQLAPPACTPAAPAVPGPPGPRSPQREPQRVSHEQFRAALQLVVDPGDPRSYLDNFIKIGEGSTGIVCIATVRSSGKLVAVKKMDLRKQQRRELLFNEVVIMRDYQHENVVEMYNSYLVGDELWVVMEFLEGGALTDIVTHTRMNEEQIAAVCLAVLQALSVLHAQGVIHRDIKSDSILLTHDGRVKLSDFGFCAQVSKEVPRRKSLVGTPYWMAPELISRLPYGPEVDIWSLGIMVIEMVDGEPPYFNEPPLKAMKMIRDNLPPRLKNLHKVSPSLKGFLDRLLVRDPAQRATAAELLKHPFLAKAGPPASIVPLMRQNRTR
UniProt P57058, sequence (whole entry, looked up): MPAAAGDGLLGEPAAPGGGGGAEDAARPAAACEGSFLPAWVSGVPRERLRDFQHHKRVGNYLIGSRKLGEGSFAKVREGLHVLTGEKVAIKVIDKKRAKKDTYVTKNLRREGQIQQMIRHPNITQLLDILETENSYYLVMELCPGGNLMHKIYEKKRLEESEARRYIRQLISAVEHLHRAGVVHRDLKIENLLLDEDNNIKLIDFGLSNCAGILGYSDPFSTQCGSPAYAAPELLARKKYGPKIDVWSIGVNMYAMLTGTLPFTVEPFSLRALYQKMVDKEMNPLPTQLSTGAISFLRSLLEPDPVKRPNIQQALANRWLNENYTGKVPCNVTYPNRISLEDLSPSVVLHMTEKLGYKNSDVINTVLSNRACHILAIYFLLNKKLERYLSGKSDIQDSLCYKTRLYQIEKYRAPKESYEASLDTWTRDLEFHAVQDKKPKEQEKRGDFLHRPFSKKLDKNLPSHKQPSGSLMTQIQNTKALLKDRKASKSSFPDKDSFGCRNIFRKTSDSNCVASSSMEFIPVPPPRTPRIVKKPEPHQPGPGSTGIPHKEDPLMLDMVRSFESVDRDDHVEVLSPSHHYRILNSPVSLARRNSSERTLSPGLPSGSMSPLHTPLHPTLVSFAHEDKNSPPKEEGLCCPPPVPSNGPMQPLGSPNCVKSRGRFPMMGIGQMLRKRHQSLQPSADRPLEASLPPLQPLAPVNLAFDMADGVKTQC
UniProt Q00536, sequence (whole entry, looked up): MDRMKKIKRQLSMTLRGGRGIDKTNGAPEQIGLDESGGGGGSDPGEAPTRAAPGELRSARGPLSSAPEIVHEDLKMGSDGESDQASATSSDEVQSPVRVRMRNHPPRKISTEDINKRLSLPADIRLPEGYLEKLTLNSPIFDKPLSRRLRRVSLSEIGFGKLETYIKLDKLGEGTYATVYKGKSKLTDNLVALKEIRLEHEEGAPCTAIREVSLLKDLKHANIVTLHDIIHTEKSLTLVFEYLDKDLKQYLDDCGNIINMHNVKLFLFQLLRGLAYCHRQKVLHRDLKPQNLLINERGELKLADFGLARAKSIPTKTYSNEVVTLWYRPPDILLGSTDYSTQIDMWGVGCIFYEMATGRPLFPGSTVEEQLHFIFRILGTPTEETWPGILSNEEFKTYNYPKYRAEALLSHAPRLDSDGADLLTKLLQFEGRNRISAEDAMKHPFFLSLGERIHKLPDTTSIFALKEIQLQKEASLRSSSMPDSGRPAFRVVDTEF
UniProt P32298, sequence (whole entry, looked up): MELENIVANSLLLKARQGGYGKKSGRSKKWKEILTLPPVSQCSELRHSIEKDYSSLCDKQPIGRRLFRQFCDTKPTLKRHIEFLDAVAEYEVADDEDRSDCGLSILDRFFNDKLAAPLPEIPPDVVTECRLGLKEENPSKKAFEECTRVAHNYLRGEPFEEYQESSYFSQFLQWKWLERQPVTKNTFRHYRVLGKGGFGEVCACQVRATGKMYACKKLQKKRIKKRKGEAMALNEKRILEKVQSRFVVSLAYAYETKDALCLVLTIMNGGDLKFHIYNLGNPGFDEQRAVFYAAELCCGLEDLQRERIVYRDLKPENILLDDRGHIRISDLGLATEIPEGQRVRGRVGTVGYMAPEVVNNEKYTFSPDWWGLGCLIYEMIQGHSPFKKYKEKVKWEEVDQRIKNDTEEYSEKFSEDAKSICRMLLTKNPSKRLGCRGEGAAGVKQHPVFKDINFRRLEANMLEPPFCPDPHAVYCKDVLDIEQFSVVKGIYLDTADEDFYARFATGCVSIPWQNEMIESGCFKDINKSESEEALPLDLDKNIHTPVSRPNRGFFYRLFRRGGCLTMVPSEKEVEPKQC
UniProt O75582, sequence (whole entry, looked up): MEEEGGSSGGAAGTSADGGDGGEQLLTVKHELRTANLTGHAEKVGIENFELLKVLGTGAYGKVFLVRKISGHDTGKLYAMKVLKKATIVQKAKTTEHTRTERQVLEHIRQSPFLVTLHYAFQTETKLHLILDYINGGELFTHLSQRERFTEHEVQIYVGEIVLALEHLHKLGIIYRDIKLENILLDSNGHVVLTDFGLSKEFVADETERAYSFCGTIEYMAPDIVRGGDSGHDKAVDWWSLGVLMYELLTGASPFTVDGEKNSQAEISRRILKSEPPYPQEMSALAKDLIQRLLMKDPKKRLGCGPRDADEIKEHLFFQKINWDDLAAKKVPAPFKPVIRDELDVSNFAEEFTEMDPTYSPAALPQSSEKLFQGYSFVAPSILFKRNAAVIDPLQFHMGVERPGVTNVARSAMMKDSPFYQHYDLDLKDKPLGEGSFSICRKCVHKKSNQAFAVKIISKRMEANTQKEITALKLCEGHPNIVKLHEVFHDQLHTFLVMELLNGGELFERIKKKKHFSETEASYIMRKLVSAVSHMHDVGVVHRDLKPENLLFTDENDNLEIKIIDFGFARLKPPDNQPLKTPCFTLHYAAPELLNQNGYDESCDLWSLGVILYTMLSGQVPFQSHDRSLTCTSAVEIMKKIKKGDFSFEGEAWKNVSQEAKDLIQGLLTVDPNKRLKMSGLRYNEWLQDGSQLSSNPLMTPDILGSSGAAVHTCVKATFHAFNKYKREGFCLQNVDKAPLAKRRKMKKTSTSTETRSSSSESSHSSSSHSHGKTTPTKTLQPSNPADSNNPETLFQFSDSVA
UniProt P49336, sequence (whole entry, looked up): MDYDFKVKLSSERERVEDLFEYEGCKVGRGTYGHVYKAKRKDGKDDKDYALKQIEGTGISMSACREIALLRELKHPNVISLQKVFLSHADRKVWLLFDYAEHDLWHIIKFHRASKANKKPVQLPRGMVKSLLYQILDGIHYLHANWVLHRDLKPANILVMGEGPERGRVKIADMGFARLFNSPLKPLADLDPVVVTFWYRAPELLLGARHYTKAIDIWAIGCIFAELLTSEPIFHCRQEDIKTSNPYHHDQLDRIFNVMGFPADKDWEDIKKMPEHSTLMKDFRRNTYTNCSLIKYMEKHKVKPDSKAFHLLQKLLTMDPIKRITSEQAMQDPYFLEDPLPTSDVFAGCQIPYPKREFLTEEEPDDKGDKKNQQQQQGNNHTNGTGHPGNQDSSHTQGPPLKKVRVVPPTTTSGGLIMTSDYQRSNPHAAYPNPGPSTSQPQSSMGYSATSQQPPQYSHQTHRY

Study 1 — organism: Sarcocystis neurona; observed: parasite activity; tested at: 10 µM; time: 96 h; endpoint: activity class
NC(=O)C[S+]([O-])C(c1ccccc1)c1ccccc1 (stereo not shown): inactive
CN1C(=O)CN=C(c2ccccc2)c2cc([N+](=O)[O-])ccc21: inactive
CNCC(O)c1ccc(O)cc1 (stereo not shown): inactive
Cc1nnc2n1-c1ccc(Cl)cc1C(c1ccccc1)=NC2: inactive
C[C@]12C/C(=C/O)C(=O)C[C@@H]1CC[C@@H]1[C@@H]2CC[C@@]2(C)[C@H]1CC[C@]2(C)O: inactive
CNC1CC(c2ccc(Cl)c(Cl)c2)c2ccccc21 (stereo not shown): inactive
COc1ccc(C(CN(C)C)C2(O)CCCCC2)cc1 (stereo not shown): inactive
C[C@]12CC[C@H]3[C@@H](CCC4=CC(=O)CC[C@@]43C)[C@@H]1CC[C@@H]2O: inactive

Study 2 — cell line: mouse MPNST tumor cells; technique: high-content nuclear imaging; item: cell number; tested at: 10 µM; time: 12 h; setting: mean of 2 replicates; baseline: plate mean; reading: higher = more cells; endpoint: nuclei count
Cc1cc(C(C#N)c2ccc(Cl)cc2)c(Cl)cc1NC(=O)c1cc(I)cc(I)c1O (stereo not shown): 1.84 z-score
CC(=O)N1N=C(c2ccc(N)cc2)c2cc3c(cc2C[C@H]1C)OCO3: 1.15 z-score
C[N+]1(C)CCOC(O)(c2ccc(-c3ccc(C4(O)C[N+](C)(C)CCO4)cc3)cc2)C1 (stereo not shown): 0.335 z-score

Study 3 — observed: cell-free assay; technique: competition with immobilised ligand; tested at: 1 µM; endpoint: remaining binding
SMILES: Cn1cncc1[C@](O)(COc1ccc(C#N)cc1-c1ccc(OC(F)(F)F)cc1)c1ccc(C#N)cc1
PAK4 (Homo sapiens, UniProt O96013): 100%
CDK16 (Homo sapiens, UniProt Q00536): 100%
Tyrosine-protein kinase ABL1, phosphorylated (ABL1, Homo sapiens, UniProt P00519, Y253F): 94%
NIM1K (Homo sapiens, UniProt Q8IY84): 87%
FLT3 (Homo sapiens, UniProt P36888, ITD): 100%
CDK8 (Homo sapiens, UniProt P49336): 66%
HUNK (Homo sapiens, UniProt P57058): 68%
Tyrosine-protein kinase ABL1, non-phosphorylated (ABL1, Homo sapiens, UniProt P00519, F317L): 100%
GRK4 (Homo sapiens, UniProt P32298): 62%
FLT3 (Homo sapiens, UniProt P36888): 87%
Ribosomal protein S6 kinase alpha-5, N-terminal kinase domain (RPS6KA5, Homo sapiens, UniProt O75582): 94%

Study 4 — endpoint: viability
Structure (SMILES): CC[C@@H](C)c1nc2cc(Nc3ccnc4ccc(S(=O)(=O)C(C)C)cc34)ccc2s1.Cl
L929 RIPK3 knockout; 50 µM, with: zVAD: 55.5% and 58.7% and 58.3% and 37.5% and 36.1%
HT-29; necroptosis protection, CCK-8; 0.625 µM, with: TNF-α SMAC mimetic zVAD: 26.3% and 20.4% and 27% and 25.6%
L929; CCK-8; 1.563 µM, with: zVAD: 99.1% and 97.8% and 95.1% and 96.8% and 94%
L929; CCK-8; 100 µM, with: zVAD: 38.1% and 39.3% and 40.9% and 39.2%
L929 RIPK3 knockout; 0.781 µM: 103% and 101% and 102%
L929 RIPK3 knockout; 6.25 µM: 94.8% and 106% and 109% and 96%
L929; CCK-8; 50 µM, with: zVAD: 42.4% and 34.4% and 45.1% and 35.2% and 35.3%
L929 RIPK3 knockout; 0.781 µM, with: zVAD: 102% and 105% and 98.7%
L929 RIPK3 knockout; 6.25 µM, with: zVAD: 96.5% and 97.4% and 104% and 106% and 108%
L929; CCK-8; 3.125 µM, with: zVAD: 100% and 97.5% and 101% and 103%
HT-29; necroptosis protection, CCK-8; 0.156 µM, with: TNF-α SMAC mimetic zVAD: 19.8% and 12.8% and 19.3% and 13.1%
L929; CCK-8; 50 µM: 42.9% and 42.7% and 34.7% and 34.8%

Excerpt of the above (study 1):
C[C@]12C/C(=C/O)C(=O)C[C@@H]1CC[C@@H]1[C@@H]2CC[C@@]2(C)[C@H]1CC[C@]2(C)O: inactive
CNCC(O)c1ccc(O)cc1 (stereo not shown): inactive
C[C@]12CC[C@H]3[C@@H](CCC4=CC(=O)CC[C@@]43C)[C@@H]1CC[C@@H]2O: inactive
CN1C(=O)CN=C(c2ccccc2)c2cc([N+](=O)[O-])ccc21: inactive
Cc1nnc2n1-c1ccc(Cl)cc1C(c1ccccc1)=NC2: inactive
